Measured values gathered from unrelated publications.
4'-phosphopantetheinyl transferase PptT: 4'-phosphopantetheinyl transferase PptT (Mycobacterium tuberculosis, UniProt O33336)
Chain of UniProt O33336 (whole entry, looked up): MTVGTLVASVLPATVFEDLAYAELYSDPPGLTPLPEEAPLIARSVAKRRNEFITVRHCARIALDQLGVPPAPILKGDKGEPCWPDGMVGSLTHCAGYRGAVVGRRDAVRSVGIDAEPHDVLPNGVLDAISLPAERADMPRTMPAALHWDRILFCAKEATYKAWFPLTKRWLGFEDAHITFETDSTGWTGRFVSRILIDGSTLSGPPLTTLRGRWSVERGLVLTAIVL
Slc6a4: Sodium-dependent serotonin transporter (Slc6a4, Rattus norvegicus, UniProt P31652)
Chain of UniProt P31652 (whole entry, looked up): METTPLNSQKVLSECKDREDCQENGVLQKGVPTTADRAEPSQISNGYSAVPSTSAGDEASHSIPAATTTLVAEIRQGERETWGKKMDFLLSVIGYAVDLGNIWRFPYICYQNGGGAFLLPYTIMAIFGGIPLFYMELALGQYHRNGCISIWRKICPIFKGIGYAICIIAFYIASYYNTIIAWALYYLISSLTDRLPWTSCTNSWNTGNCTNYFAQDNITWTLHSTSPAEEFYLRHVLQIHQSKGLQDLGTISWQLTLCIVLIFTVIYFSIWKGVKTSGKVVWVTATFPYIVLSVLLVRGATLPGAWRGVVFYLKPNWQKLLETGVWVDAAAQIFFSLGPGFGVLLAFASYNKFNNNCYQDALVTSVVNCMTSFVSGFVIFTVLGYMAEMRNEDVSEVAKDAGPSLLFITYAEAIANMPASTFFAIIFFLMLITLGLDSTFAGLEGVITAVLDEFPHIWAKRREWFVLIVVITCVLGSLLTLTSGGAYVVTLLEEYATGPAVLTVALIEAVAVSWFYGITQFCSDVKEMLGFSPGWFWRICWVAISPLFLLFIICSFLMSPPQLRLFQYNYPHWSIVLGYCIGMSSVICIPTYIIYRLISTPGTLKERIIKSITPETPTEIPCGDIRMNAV
ADRA2A: Alpha-2A adrenergic receptor (ADRA2A, Homo sapiens, UniProt P08913)
Chain of UniProt P08913 (whole entry, looked up): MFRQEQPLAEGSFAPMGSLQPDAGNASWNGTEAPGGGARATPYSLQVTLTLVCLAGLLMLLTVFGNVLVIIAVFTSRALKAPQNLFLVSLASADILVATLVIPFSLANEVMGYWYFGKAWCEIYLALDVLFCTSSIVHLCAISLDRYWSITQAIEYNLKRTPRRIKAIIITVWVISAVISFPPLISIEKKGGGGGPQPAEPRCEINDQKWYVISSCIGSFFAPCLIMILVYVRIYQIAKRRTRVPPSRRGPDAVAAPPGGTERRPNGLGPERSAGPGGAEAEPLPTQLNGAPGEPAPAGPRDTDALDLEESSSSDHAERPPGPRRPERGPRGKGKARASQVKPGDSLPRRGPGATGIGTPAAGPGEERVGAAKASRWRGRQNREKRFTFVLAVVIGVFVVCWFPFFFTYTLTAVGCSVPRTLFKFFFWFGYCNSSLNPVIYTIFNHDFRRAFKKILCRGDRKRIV
Chain of UniProt P33535 (whole entry, looked up): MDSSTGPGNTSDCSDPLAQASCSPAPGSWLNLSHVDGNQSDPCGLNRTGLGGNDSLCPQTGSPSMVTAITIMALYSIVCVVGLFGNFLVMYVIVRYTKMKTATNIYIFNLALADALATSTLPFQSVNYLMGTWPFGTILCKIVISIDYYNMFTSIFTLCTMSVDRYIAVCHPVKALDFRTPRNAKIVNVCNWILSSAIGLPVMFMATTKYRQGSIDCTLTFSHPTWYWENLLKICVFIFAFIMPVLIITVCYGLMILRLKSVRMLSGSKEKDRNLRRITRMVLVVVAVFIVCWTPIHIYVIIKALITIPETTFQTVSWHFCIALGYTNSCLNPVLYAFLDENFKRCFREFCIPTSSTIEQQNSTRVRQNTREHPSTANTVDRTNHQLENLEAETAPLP
Chain of UniProt Q86UE8 (whole entry, looked up): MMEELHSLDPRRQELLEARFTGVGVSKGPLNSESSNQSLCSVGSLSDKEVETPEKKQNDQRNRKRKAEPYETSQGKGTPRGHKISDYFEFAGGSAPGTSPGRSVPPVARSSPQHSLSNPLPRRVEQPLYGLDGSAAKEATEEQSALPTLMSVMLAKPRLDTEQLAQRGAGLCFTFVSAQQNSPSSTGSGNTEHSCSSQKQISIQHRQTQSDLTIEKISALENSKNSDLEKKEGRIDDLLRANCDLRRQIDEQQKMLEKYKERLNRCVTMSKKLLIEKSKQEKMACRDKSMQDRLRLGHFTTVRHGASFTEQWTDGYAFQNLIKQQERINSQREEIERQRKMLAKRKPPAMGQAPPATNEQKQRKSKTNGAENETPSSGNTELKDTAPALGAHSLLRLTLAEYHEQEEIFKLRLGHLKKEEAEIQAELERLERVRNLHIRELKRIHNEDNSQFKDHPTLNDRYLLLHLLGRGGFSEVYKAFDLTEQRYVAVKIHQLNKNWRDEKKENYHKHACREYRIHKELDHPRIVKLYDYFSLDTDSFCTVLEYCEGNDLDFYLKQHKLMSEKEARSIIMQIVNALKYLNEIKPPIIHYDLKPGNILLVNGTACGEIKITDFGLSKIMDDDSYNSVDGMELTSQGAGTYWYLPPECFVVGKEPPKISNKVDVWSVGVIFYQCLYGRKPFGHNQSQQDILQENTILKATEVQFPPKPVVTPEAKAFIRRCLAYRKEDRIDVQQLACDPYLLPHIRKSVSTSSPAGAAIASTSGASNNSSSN
Chain of UniProt P9WG45 (whole entry, looked up): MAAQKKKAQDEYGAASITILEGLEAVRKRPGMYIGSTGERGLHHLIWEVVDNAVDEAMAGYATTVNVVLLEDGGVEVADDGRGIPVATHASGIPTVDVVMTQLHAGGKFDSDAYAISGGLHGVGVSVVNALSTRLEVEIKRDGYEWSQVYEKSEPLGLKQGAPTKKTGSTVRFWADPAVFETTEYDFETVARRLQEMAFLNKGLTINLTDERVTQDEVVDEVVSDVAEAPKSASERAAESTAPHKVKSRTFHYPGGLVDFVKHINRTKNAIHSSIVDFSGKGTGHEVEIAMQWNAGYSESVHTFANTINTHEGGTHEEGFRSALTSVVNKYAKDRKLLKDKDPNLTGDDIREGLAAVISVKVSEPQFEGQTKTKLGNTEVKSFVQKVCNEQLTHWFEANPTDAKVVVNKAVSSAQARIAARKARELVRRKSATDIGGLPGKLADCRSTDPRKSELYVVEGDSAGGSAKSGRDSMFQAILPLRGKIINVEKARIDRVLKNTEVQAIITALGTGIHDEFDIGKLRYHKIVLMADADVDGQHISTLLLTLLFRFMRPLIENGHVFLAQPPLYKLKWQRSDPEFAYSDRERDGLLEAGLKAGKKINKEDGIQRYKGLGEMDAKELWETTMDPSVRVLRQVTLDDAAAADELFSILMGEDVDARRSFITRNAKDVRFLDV
Chain of UniProt Q9NSA0 (whole entry, looked up): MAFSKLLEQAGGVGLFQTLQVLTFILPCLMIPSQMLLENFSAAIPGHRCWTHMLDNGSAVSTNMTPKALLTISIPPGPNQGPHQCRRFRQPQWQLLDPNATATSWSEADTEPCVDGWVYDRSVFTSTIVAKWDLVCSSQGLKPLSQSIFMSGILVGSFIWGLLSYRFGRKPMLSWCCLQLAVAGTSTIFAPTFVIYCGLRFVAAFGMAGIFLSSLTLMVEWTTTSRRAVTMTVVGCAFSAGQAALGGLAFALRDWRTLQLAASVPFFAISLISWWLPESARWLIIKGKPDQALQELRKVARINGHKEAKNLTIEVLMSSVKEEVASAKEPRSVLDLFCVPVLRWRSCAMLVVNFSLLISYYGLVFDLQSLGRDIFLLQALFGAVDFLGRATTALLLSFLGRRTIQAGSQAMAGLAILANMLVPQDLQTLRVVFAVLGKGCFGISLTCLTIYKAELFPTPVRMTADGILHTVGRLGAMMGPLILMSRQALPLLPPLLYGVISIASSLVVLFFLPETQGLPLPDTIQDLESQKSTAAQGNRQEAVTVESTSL
Chain of UniProt O15244 (whole entry, looked up): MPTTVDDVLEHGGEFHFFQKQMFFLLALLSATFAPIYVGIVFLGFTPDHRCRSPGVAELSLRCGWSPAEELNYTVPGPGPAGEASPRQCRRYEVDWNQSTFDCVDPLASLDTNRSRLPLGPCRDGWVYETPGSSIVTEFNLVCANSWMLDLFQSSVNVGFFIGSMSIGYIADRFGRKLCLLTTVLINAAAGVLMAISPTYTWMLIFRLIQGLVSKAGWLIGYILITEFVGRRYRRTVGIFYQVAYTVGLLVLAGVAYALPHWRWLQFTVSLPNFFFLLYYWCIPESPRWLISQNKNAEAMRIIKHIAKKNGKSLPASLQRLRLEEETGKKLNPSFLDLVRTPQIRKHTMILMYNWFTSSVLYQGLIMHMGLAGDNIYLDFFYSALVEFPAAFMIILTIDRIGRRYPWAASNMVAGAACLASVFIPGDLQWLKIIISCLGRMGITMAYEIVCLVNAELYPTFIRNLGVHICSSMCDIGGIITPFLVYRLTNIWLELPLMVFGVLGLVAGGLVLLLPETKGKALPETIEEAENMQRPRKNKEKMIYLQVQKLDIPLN
Chain of UniProt P23975 (whole entry, looked up): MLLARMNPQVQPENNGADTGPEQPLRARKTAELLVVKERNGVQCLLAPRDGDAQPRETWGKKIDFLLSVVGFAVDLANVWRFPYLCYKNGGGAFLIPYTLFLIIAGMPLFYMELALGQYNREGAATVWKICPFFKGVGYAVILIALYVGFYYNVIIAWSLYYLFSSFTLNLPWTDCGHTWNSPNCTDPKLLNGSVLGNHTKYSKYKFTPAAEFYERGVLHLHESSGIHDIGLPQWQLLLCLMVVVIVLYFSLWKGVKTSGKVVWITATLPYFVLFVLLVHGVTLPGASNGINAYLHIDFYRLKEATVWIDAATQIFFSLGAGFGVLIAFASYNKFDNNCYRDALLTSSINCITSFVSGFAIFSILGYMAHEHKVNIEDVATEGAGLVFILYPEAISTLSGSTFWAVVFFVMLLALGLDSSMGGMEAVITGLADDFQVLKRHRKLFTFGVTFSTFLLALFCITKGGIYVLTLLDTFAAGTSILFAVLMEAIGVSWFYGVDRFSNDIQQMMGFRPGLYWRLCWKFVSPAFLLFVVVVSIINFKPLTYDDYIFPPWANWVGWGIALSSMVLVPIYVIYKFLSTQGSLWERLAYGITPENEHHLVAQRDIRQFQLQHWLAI

SMILES | target | assay | setting | quantity | value
C[C@H](N)C(=O)OCc1cc2[nH]c(=S)n(Cc3cncnc3)c(=O)c2cc1Cl | 4'-phosphopantetheinyl transferase PptT | enzyme activity, inhibitor, FP |  | IC50 | 3.07 µM
NS(=O)(=O)c1nnc(NC(=O)CN2CCN(c3cc4c(cc3F)c(=O)c(C(=O)O)cn4C3CC3)CC2)s1 | DNA gyrase subunit A/DNA gyrase subunit B (Mycobacterium tuberculosis, UniProt P9WG45+P9WG47) | enzyme activity, inhibitor |  | IC50 | 5.6 µM
C[C@]12CC[C@@H]3c4ccc(OS(=O)(=O)O)cc4CC[C@H]3[C@@H]1CCC2=O | SLC22A11 (Homo sapiens, UniProt Q9NSA0) | transporter uptake, inhibitor, radiometric |  | IC50 | 3.8 µM
[2H]c1c([2H])c([C@]2([2H])CCCN2C(=O)C(C)(C)Oc2ccc3cn[nH]c3c2)c([2H])c([2H])c1C([2H])([2H])[2H] | TLK2 (Homo sapiens, UniProt Q86UE8) | binding, competition with immobilised ligand | 1 µM | remaining binding | 98%
CC(C)C(=O)OCc1cc2[nH]c(=S)n(Cc3cncnc3)c(=O)c2cc1Cl | 4'-phosphopantetheinyl transferase PptT | enzyme activity, inhibitor, FP |  | IC50 | 18 µM
Cc1nn(C)cc1-c1nc2c(N3CCN(Cc4ccc(Cl)cc4)CC3)c(Cl)cnc2[nH]1 | PIK3C2G (Homo sapiens, UniProt O75747) | binding, competition with immobilised ligand | 1 µM | remaining binding | 100%
CNC(C)Cc1ccc2c(c1)OCO2 (stereo not drawn) | SLC22A2 (Homo sapiens, UniProt O15244) | transporter uptake, inhibitor |  | IC50 | 1.91 µM
Cc1nnc2n1-c1ccc(Cl)cc1C(c1ccccc1)=NC2 | CYP2C19 (Homo sapiens, UniProt P33261) | enzyme activity, inhibitor, fluorescence |  | IC50 | 444 µM
COC(=O)/C=C/C(=O)N[C@@H]1CC[C@@]2(O)[C@H]3Cc4ccc(O)c5c4[C@@]2(CCN3CC2CC2)[C@H]1O5 | Oprm1 (Rattus norvegicus, UniProt P33535) | ligand displacement, radioligand | cell membranes | IC50 | 0.00408 µM
C=CCN1CC[C@]23c4c5ccc(O)c4O[C@H]2C(=O)CC[C@]3(O)[C@H]1C5 | SLC6A2 (Homo sapiens, UniProt P23975) | transporter uptake, inhibitor, radiometric |  | IC50 | > 10 µM
CC(C)NC(C)C(=O)c1cccc(Cl)c1 (stereo not drawn) | Slc6a4 | transporter uptake, inhibitor, radiometric |  | IC50 | 3.41 µM
CC(C)Oc1cccc(CCN)c1 | ADRB2 (Homo sapiens, UniProt P07550) | calcium signal, antagonist, fluorescence |  | IC50 | 33 µM
O=c1[nH]c2ccc(Cl)cc2c(=S)n1Cc1cccnc1 | 4'-phosphopantetheinyl transferase PptT | enzyme activity, inhibitor, FP |  | IC50 | > 100 µM
COc1ncccc1-c1cnn2ccc(N3CCN(C(=O)OC(C)C)CC3)nc12 | MAP3K6 (Homo sapiens, UniProt O95382) | binding, competition with immobilised ligand | 1 µM | remaining binding | 100%
CNC(C)C(=O)c1cccc(Cl)c1 (stereo not drawn) | Slc6a4 | transporter uptake, inhibitor, radiometric |  | IC50 | 1.1 µM
O=c1c2cccc(Cl)c2[nH]c(=S)n1Cc1cccnc1 | 4'-phosphopantetheinyl transferase PptT | enzyme activity, inhibitor, FP |  | IC50 | 20 µM
CC(NC(C)(C)C)C(=O)c1ccccc1 (stereo not drawn) | Slc6a4 | transporter uptake, inhibitor, radiometric |  | IC50 | > 10 µM
CN1CC[C@]23CCCC[C@H]2[C@H]1Cc1ccc(O)cc13 | ADRA2A | ligand displacement, radioligand |  | IC50 | 8.98 µM
O=c1c2cc(Cl)cnc2[nH]c(=S)n1Cc1cccnc1 | 4'-phosphopantetheinyl transferase PptT | enzyme activity, inhibitor, FP |  | IC50 | > 100 µM
COc1ccc2c(c1)[C@]13CCCC[C@@H]1[C@H](C2)N(C)CC3 | ADRA2A | ligand displacement, radioligand |  | IC50 | 11.2 µM
Nc1ncc(-c2nc(N3CCOCC3)nc(N3CCOCC3)n2)c(C(F)F)n1 | Receptor-type tyrosine-protein kinase FLT3, autoinhibited (FLT3, Homo sapiens, UniProt P36888) | binding, competition with immobilised ligand | 10 µM | remaining binding | 50%

Some of these lines once more:
SMILES | target | assay | setting | quantity | value
Cc1nn(C)cc1-c1nc2c(N3CCN(Cc4ccc(Cl)cc4)CC3)c(Cl)cnc2[nH]1 | PIK3C2G (Homo sapiens, UniProt O75747) | binding, competition with immobilised ligand | 1 µM | remaining binding | 100%
CNC(C)Cc1ccc2c(c1)OCO2 (stereo not drawn) | SLC22A2 (Homo sapiens, UniProt O15244) | transporter uptake, inhibitor |  | IC50 | 1.91 µM
